{"data": "Assay results from different studies", "note": "Every numbered part comes from another study and shows a few of its results, in no order.", "sequence of UniProt P49840 (whole entry, looked up)": "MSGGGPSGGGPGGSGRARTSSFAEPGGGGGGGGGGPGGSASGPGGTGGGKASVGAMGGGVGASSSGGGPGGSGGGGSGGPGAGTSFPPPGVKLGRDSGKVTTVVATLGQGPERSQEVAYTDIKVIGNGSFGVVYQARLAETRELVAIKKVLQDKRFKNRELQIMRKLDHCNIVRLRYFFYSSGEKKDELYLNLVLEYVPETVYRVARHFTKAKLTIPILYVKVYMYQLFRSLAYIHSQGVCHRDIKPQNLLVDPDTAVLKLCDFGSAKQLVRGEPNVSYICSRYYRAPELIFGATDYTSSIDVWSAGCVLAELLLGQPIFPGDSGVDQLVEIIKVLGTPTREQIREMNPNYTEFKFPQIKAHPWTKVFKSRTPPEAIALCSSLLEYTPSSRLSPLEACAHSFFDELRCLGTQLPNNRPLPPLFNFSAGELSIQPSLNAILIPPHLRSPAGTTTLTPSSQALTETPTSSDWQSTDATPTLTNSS", "sequence of UniProt P08631 (whole entry, looked up)": "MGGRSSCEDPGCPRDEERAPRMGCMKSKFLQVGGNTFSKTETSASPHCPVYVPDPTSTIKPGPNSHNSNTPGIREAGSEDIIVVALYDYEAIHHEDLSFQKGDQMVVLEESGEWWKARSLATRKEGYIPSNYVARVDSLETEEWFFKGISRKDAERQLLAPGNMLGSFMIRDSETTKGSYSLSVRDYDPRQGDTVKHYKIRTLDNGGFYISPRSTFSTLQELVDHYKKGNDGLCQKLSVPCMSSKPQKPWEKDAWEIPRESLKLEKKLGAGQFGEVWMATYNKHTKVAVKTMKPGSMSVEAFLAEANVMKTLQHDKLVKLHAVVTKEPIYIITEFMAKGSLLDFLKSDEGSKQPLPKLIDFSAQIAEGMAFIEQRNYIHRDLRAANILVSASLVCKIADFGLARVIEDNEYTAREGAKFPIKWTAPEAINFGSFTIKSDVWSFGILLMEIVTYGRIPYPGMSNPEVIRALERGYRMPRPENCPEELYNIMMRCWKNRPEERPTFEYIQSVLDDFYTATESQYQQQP", "sequence of UniProt P23443 (whole entry, looked up)": "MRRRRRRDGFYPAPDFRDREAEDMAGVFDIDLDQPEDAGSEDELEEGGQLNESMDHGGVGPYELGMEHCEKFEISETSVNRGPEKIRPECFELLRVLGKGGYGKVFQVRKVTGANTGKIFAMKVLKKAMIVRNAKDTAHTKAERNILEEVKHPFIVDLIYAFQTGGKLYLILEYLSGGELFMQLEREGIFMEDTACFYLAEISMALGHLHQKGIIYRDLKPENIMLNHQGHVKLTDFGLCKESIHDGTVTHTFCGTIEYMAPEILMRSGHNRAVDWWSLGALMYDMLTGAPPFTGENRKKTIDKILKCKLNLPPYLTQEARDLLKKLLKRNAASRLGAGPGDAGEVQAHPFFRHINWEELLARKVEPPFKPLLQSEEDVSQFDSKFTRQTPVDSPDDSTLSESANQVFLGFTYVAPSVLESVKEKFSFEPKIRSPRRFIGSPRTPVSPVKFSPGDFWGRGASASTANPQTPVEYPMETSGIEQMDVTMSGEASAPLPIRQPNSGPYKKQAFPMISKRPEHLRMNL", "sequence of UniProt Q9UPE1 (whole entry, looked up)": "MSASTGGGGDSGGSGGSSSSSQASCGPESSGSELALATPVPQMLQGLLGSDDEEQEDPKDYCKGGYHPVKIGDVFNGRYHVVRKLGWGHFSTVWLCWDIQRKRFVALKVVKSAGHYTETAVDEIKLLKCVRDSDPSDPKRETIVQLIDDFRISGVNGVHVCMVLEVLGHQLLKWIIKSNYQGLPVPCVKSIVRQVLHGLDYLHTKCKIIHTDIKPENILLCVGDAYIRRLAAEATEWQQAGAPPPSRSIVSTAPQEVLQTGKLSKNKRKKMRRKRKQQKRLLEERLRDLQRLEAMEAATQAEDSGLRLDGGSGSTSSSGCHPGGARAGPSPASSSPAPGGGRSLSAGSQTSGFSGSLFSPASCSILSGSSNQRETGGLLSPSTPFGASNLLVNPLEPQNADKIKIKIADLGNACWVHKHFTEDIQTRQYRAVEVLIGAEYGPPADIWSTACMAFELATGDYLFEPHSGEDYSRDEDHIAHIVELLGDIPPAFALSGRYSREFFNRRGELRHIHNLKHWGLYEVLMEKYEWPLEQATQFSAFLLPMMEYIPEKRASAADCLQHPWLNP", "sequence of UniProt Q9P1W9 (whole entry, looked up)": "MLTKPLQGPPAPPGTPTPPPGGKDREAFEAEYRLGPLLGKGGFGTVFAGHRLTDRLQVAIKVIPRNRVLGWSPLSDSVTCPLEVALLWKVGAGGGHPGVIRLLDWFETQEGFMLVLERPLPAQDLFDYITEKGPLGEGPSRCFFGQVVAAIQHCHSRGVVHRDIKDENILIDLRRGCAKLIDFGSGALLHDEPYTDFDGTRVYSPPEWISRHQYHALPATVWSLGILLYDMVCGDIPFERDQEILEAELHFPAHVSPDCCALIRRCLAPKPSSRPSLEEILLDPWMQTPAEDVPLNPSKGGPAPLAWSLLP", "sequence of UniProt P41240 (whole entry, looked up)": "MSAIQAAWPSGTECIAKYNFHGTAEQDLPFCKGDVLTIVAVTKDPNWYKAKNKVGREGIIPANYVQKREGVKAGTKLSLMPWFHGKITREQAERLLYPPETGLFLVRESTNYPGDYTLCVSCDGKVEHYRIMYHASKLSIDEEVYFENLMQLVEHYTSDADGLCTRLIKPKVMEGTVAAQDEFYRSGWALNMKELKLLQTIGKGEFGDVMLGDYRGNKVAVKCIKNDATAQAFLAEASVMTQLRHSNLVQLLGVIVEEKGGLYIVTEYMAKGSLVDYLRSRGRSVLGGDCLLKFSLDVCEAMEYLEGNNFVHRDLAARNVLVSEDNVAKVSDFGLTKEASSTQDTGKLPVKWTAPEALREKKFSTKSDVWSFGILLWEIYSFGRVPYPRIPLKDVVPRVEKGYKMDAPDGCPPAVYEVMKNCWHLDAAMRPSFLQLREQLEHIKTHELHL", "sequence of UniProt Q13177 (whole entry, looked up)": "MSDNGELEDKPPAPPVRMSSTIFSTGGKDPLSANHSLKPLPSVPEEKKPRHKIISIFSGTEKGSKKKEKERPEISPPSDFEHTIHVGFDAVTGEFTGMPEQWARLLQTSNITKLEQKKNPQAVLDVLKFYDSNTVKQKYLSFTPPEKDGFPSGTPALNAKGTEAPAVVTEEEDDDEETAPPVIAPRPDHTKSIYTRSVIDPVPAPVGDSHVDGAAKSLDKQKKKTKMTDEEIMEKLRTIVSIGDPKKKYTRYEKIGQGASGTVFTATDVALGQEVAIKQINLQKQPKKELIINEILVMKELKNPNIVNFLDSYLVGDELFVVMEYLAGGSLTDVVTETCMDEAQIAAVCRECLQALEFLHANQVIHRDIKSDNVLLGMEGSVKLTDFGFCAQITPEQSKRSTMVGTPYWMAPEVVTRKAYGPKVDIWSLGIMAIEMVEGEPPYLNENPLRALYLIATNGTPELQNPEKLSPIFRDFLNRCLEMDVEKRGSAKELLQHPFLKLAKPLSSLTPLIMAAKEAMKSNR", "sequence of UniProt Q15418 (whole entry, looked up)": "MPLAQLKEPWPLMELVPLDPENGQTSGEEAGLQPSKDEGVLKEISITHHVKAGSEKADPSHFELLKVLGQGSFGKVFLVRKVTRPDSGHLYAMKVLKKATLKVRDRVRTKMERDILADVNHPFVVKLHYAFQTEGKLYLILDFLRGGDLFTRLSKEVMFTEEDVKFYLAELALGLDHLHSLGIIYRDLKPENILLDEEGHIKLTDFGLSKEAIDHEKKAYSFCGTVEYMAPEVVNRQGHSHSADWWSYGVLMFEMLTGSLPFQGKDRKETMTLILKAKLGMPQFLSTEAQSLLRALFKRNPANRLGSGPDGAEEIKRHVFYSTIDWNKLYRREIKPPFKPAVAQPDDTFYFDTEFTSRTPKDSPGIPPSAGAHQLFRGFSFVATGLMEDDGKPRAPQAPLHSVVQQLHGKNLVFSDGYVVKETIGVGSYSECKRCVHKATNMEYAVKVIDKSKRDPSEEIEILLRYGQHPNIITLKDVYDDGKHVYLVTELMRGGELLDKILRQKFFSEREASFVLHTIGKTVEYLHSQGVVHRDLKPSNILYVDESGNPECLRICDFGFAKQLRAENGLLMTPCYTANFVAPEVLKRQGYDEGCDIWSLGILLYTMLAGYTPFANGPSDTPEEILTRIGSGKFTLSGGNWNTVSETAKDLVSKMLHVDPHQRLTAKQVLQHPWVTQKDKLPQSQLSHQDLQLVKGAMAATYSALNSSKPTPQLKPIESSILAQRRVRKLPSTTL", "sequence of UniProt Q6P3R8 (whole entry, looked up)": "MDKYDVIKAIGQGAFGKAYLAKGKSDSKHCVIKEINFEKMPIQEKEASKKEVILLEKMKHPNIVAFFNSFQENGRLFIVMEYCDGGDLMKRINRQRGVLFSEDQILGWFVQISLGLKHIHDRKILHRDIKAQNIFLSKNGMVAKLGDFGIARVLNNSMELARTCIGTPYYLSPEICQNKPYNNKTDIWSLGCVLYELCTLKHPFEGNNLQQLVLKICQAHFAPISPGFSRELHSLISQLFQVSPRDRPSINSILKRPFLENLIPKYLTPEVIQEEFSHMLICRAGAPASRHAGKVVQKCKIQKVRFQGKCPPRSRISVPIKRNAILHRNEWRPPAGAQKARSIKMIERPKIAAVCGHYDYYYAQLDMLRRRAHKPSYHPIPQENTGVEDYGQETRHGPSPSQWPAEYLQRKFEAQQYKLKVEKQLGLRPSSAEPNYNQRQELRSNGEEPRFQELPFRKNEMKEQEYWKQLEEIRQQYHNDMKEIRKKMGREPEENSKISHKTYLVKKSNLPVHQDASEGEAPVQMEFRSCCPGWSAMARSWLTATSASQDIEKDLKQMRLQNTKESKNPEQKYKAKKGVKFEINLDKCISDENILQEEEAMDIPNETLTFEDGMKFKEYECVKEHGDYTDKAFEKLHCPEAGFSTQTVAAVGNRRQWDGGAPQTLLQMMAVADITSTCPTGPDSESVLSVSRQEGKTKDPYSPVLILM"}
{"data": "Series 1", "Compound": "COc1ccc(S(=O)(=O)N(CCO)c2ccccc2CN(C)CC=Cc2ccc(Cl)cc2)cc1", "observed": "enzyme activity", "action": "inhibitor", "tested at": "0.5 µM", "reference": "control"}
{"target": "CSK (Homo sapiens, UniProt P41240)", "remaining activity [%]": 95.6}
{"target": "GRK2 (Homo sapiens, UniProt P25098)", "remaining activity [%]": 97.9}
{"target": "SRPK3 (Homo sapiens, UniProt Q9UPE1)", "remaining activity [%]": 97.3}
{"target": "CSF1R (Homo sapiens, UniProt P07333)", "remaining activity [%]": 103}
{"target": "EPHA7 (Homo sapiens, UniProt Q15375)", "remaining activity [%]": 98.9}
{"target": "Aurora kinase C (AURKC, Homo sapiens, UniProt Q9UQB9)", "remaining activity [%]": 96.8}
{"target": "PRKCE (Homo sapiens, UniProt Q02156)", "remaining activity [%]": 97.2}
{"target": "GSK3A (Homo sapiens, UniProt P49840)", "remaining activity [%]": 99.9}
{"target": "MYLK (Homo sapiens, UniProt Q15746)", "remaining activity [%]": 98.4}
{"target": "SGK1 (Homo sapiens, UniProt O00141)", "remaining activity [%]": 103}
{"target": "RPS6KB1 (Homo sapiens, UniProt P23443)", "remaining activity [%]": 103}
{"target": "PIM2 (Homo sapiens, UniProt Q9P1W9)", "remaining activity [%]": 99.7}
{"target": "PAK2 (Homo sapiens, UniProt Q13177)", "remaining activity [%]": 101}
{"target": "EPHB2 (Homo sapiens, UniProt P29323)", "remaining activity [%]": 97.7}
{"target": "PRKCG (Homo sapiens, UniProt P05129)", "remaining activity [%]": 95.1}
{"target": "FGFR4 (Homo sapiens, UniProt P22455)", "remaining activity [%]": 98.3}
{"target": "RPS6KA1 (Homo sapiens, UniProt Q15418)", "remaining activity [%]": 108}
{"data": "Series 2", "cell line": "A-375", "tested at": "100 µM", "time": "36 h"}
{"SMILES": "COc1cc2ccc(=O)oc2cc1O", "viability": "95.6%"}
{"SMILES": "COc1cc(O)c(C(=O)Nc2nc(C(=O)NCCN(C(C)C)C(C)C)cs2)cc1OC", "viability": "102%"}
{"SMILES": "CC(=O)O[C@]1(C(C)=O)CC[C@H]2[C@@H]3C=C(C)C4=CC(=O)CC[C@]4(C)[C@H]3CC[C@@]21C", "viability": "42.3%"}
{"SMILES": "OC[C@@H](O)[C@@H](O)[C@H](O)[C@H](O)CO", "viability": "107%"}
{"SMILES": "CCC(CC)[C@H](NC(C)=O)[C@@H]1[C@H](O)[C@@H](C(=O)O)C[C@H]1NC(=N)N", "viability": "98.1%"}
{"SMILES": "CC(C)OC(=O)C(C)(C)Oc1ccc(C(=O)c2ccc(Cl)cc2)cc1", "viability": "75.2%"}
{"SMILES": "CC(C)(CO)[C@@H](O)C(=O)NCCCO", "viability": "102%"}
{"SMILES": "CC[C@@H]1/C=C(\\C)C[C@H](C)C[C@H](OC)[C@H]2O[C@@](O)(C(=O)C(=O)N3CCCC[C@H]3C(=O)O[C@H](/C(C)=C/[C@@H]3CC[C@H](Cl)[C@H](OC)C3)[C@H](C)[C@@H](O)CC1=O)[C@H](C)C[C@@H]2OC", "viability": "92.3%"}
{"SMILES": "CC(=O)c1ccc(O)c(C(=O)O)c1", "viability": "97.3%"}
{"data": "Series 3", "species": "mouse", "sample": "microsomes or S9", "tested at": "2 µM", "time": "0.5 h"}
{"SMILES": "CC(C)c1cc(C(N)=O)c(NC(=O)/C(=C/c2ccccc2)c2ccccc2)s1", "remaining compound [%]": 62.7}
{"SMILES": "Cc1ccc(NC(=O)C(Cc2cccc(C)c2)c2nnn[nH]2)cc1 (stereo not shown)", "remaining compound [%]": 71}
{"SMILES": "COc1ccc(Cn2nc(-c3ccc(O)cc3)n(-c3ccc(OCCN(C)C)cc3)c2=O)cc1", "remaining compound [%]": 88.8}
{"SMILES": "O=C(Nc1ccccc1OC1CCCC1)c1c(O)cc(=O)n2c1CCC2", "remaining compound [%]": 34.4}
{"SMILES": "CC(C)(C)OC(=O)COc1ccc(-c2cc3ccccc3[nH]c2=O)cc1", "remaining compound [%]": 3.47}
{"SMILES": "CSc1nnc(N2C(N)=C(C#N)C3(C(=O)Nc4ccc(F)cc43)C3=C2CC(C)(C)CC3=O)s1 (stereo not shown)", "remaining compound [%]": 93.3}
{"SMILES": "Cc1ncoc1C(=O)N1C2CCC1Cn1c(nnc1-c1ccccc1)C2 (stereo not shown)", "remaining compound [%]": 94.7}
{"SMILES": "Cc1cccc(S(=O)(=O)NCCCC(C)C(=O)O)c1Br (stereo not shown)", "remaining compound [%]": 92.6}
{"SMILES": "Cc1nn(CCC(=O)NC(C)(C)CN2CCCC(C)C2)c(C)c1C (stereo not shown)", "remaining compound [%]": 1.8}
{"SMILES": "CCOc1cc(=O)n2c(c1C(=O)Nc1ccc(C)cc1Cl)CCCC2", "remaining compound [%]": 0.0735}
{"SMILES": "CN(C(=O)c1cnc(N)nc1-c1ccccc1)C1CCCc2ccccc21 (stereo not shown)", "remaining compound [%]": 5.6}
{"SMILES": "CC(C)CN/C(=N/S(=O)(=O)c1ccccc1)c1ccccc1", "remaining compound [%]": 5.18}
{"data": "Series 4", "SMILES": "O=C(O)[C@H]1[C@H](Cn2nnc3ccccc3c2=O)CC[C@@H]1C(=O)c1ccc(OCCC2CCOCC2)cc1", "technique": "competition with immobilised ligand", "tested at": "1 µM"}
{"target": "CDK3 (Homo sapiens, UniProt Q00526)", "observed": "cell-free assay", "remaining binding": "100%"}
{"target": "Ribosomal protein S6 kinase alpha-2, N-terminal kinase domain (RPS6KA2, Homo sapiens, UniProt Q15349)", "observed": "cell-free assay", "remaining binding": "90%"}
{"target": "CASK (Homo sapiens, UniProt O14936)", "observed": "cell-free assay", "remaining binding": "100%"}
{"target": "NEK9 (Homo sapiens, UniProt Q8TD19)", "observed": "cell-free assay", "remaining binding": "91%"}
{"target": "SRPK2 (Homo sapiens, UniProt P78362)", "observed": "cell-free assay", "remaining binding": "100%"}
{"target": "HCK (Homo sapiens, UniProt P08631)", "observed": "cell-free assay", "remaining binding": "70%"}
{"target": "GSK3A (Homo sapiens, UniProt P49840)", "observed": "cell-free assay", "remaining binding": "74%"}
{"target": "MAPK4 (Homo sapiens, UniProt P31152)", "observed": "cell-free assay", "remaining binding": "82%"}
{"target": "PIK3CG (Homo sapiens, UniProt P48736)", "observed": "cell-free assay", "remaining binding": "90%"}
{"target": "Tyrosine-protein kinase ABL1, phosphorylated (ABL1, Homo sapiens, UniProt P00519, Y253F)", "observed": "cell-free assay", "remaining binding": "100%"}
{"target": "NEK5 (Homo sapiens, UniProt Q6P3R8)", "observed": "cell-free assay", "remaining binding": "97%"}
{"target": "MKNK2 (Homo sapiens, UniProt Q9HBH9)", "observed": "cell-free assay", "remaining binding": "83%"}
{"target": "CDKL2 (Homo sapiens, UniProt Q92772)", "observed": "binding", "remaining binding": "97%"}
{"target": "CDC42BPA (Homo sapiens, UniProt Q5VT25)", "observed": "cell-free assay", "remaining binding": "100%"}
{"note": "Repeated from above (series 1):"}
{"target": "EPHB2 (Homo sapiens, UniProt P29323)", "remaining activity [%]": 97.7}
{"target": "PAK2 (Homo sapiens, UniProt Q13177)", "remaining activity [%]": 101}
{"target": "RPS6KA1 (Homo sapiens, UniProt Q15418)", "remaining activity [%]": 108}
{"target": "RPS6KB1 (Homo sapiens, UniProt P23443)", "remaining activity [%]": 103}
{"target": "PRKCE (Homo sapiens, UniProt Q02156)", "remaining activity [%]": 97.2}
{"target": "MYLK (Homo sapiens, UniProt Q15746)", "remaining activity [%]": 98.4}
{"target": "PRKCG (Homo sapiens, UniProt P05129)", "remaining activity [%]": 95.1}
{"target": "GSK3A (Homo sapiens, UniProt P49840)", "remaining activity [%]": 99.9}
